Measurements pooled from the literature.
Parts stem from different laboratories: compare values within a part only.

Study 1 — method: RNA Bind-n-Seq; molecule type: RNA; medium: in vitro; tested at: 100 nM; reference: input RNA pool; reading: higher = stronger binding; endpoint: bound/input enrichment
Target: RING finger protein unkempt homolog, zinc fingers 1-6, SBP tag (UNK, Homo sapiens, UniProt Q9C0B0, residues 30-357)
UniProt Q9C0B0, sequence (30-357, looked up): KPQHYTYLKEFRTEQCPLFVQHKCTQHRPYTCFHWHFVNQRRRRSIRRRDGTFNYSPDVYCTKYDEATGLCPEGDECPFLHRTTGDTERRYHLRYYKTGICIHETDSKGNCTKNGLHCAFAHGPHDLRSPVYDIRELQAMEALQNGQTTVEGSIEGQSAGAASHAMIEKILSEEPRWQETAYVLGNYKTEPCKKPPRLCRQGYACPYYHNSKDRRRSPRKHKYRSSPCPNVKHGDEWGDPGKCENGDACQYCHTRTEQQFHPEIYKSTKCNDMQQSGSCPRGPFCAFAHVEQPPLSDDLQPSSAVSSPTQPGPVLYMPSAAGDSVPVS
Notes: RNA with constant flanks, vertebrate orthologous sites, ends assumed
Shared flanks, not repeated: GGGAGUUCUACAGUCCGACGAUC … CAACAGAGGAUUGAGCAUCA
Strand = GCGUAUGCCGCUGUCACCAAAAUCAGACUACCGUAUUUCAAAUUUCAUUCAGAGUCAUUGUAGUGUUUCCUAUUCCCUACCCUUCCCACUACUUUCAAUGAUGAUGUAUCCUAAGUUCUU; value = 0.771 ratio
Strand = GCACAUGCCACUGUCGCCAAAAACAAAAUACCACUUUCCAAAUUUCAUUCAGAGCCAUUUUAGUGUUUUCCUAUUCCCUACCCCUCCCACUACUUUCAAUGAUGACAUACCCUAAGUUCU; value = 3.38 ratio
Strand = CAAUCUUACAUUAAACUGGUAUUUUCAAACAAUAGGAAAUUCUUAUUUUUUUUUACAGUUUAGUGUAUCUGGUUUCUACAUGGAAGACUAAACUCAUGCUUAUUGCUAAAUGUGGUCUUU; value = 0.241 ratio
Strand = UUUUGUCUGCCUCAUAAAAUUUACACAAUAGACCAUUCGUCAUCCUUACUGUCCCACAAAUAGGUUUUGUUUUUUUUUUUUUAAUUUUAUUUUUUGUUUUUGUUUUGUUUACAAUUACGG; value = 10.2 ratio
Strand = GACUAGAGUCUUAAUAAAUUACUCUGACAUUCUUAAAGUUCAUUUUGAAGGACGGAUCAGACUGUAGGAUGGUGCUGGUUUCUUCAGAUUUGUGUACUGUAUCUAAAGUUACAUUUUGCA; value = 0.558 ratio
Strand = AGAAAAUUUUAACCAAGAAUCUGAAGGUAGAAAUACAGGACCAUGGUUAUCUUCCUCACUUAGAAAUAGAUGCACACCUUUGUUCUCUAGAAGGAGGCGAGAGGGAAGAGAUGAAUCUUC; value = 0.777 ratio
Strand = UUGGGAACAGCUCUCCAAAUAGGAAUAGUAGUAAAAAAAAUAAGCAAAAUGAUAUUUGUAUAGAAAAAACAGAAGUUAAAUCAUGUAAAGUAAAUGCUGCCAACCUUCCAGGUCCUAAAG; value = 1.8 ratio
Strand = AAAAUGUGUUUCCAUUUGUUUAGGAUAGUUUUGUGCUAAGGUUGUGUUAGACUUAAAAAUUAGUUAAUUUCUUUGUUGUGUUGCUUUUGUUAUUGAAAAUAAAUGGAACUUUGUAUUUGA; value = 1.37 ratio

Study 2 — method: RNA Bind-n-Seq; molecule type: RNA; medium: in vitro; tested at: 1 µM; notes: whole 134-nt RNA, ends assumed; with: 150 mM KCl; reference: input library; reading: higher = stronger binding; endpoint: log2 enrichment
Target: Ras GTPase-activating protein-binding protein 1, C-terminal RGG region (G3BP1, Homo sapiens, UniProt Q13283)
UniProt Q13283, sequence (whole entry, looked up): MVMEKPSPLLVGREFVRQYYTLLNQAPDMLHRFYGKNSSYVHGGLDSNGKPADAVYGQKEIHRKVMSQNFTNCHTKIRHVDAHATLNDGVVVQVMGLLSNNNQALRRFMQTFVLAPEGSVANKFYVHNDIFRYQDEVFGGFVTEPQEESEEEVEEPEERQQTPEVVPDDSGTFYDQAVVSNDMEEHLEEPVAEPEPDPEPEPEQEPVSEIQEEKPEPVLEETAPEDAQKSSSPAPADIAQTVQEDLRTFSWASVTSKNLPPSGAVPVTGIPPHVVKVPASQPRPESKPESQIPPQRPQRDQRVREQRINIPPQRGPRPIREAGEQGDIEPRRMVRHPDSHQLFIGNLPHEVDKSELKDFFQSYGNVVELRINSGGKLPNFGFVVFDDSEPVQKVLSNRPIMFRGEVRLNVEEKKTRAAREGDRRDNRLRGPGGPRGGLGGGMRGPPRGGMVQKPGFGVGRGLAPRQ
Shared flanks, not repeated: GGGAGUUCUACAGUCCGACGAUC … UGGAAUUCUCGGGUGUCAAGG
Strand = GUCCUGUGCUACACAUCGUAUGUACCGAAUCGGGUUUUUGGGGUUUUUGGGUUUUUGGGAAAGUAUUAUGUUACGCCGUUCGGAUCUGCA; value = 0.451
Strand = UCCUCAAGUCCUGUGCUACACAUCGUAUGUACCGAAUCGGCGGGGCGGCGGAAAGUAUUAUGUUACGCCGUUCGGAUCUGCACUUCCAGC; value = -0.794
Strand = AAGUCCUGUGCUACACAUCGUAUGUACCGAAUCGGGGUUUGGGGUUUGGGGUUUGGGAAAGUAUUAUGUUACGCCGUUCGGAUCUGCACU; value = 1.59
Strand = CACAGACAACACGCACCCACACAGACACAGAGGGAAGGGGUUGGGAUGGGGACAGGGUGCACAGCAGGGCGGGCUAGGACCCCAGCCCCU; value = -1.53
Strand = UCAAGUCCUGUGCUACACAUCGUAUGUACCGAAUCGGGCCGGCCGGGGCCGGGGAAAGUAUUAUGUUACGCCGUUCGGAUCUGCACUUCC; value = -1.34
Strand = AAGUCCUGUGCUACACAUCGUAUGUACCGAAUCGGGGUGGGGAAAGGGGUUUGGGGAAAGUAUUAUGUUACGCCGUUCGGAUCUGCACUU; value = 2.73
Strand = CACAGAAAACACGCACCCACACAGACACAGAGGGAAGGGGUUGGGAUGGGGACAGGGUGCACAGCAGGGCGGGGUAGGACCCCAGCCCCU; value = -0.6
Strand = GCAGGAAGUAAAAACAAAUGGAAAUGCUUCGGAUAGUGGCAGGGGUGGGGGUUGCUAAGGAAAGGGUGGGAUGGGAGUGGGUAAAUAGUU; value = 0.417
Strand = CCUGUGCUACACAUCGUAUGUACCGAAUCGGGUUUUUUUGGGUUUUUUUGGGUUUUUUUGGAAAGUAUUAUGUUACGCCGUUCGGAUCUG; value = -1.01

Study 3 — method: universal PBM; molecule type: double-stranded DNA, one strand shown; medium: in vitro; tested at: 600 nM; reading: higher = stronger binding; endpoint: E-score
Target: Sal-like protein 4, full length isoform A (SALL4, Homo sapiens, UniProt Q9UJQ4, residues 1-1053)
UniProt Q9UJQ4, sequence (whole entry, looked up): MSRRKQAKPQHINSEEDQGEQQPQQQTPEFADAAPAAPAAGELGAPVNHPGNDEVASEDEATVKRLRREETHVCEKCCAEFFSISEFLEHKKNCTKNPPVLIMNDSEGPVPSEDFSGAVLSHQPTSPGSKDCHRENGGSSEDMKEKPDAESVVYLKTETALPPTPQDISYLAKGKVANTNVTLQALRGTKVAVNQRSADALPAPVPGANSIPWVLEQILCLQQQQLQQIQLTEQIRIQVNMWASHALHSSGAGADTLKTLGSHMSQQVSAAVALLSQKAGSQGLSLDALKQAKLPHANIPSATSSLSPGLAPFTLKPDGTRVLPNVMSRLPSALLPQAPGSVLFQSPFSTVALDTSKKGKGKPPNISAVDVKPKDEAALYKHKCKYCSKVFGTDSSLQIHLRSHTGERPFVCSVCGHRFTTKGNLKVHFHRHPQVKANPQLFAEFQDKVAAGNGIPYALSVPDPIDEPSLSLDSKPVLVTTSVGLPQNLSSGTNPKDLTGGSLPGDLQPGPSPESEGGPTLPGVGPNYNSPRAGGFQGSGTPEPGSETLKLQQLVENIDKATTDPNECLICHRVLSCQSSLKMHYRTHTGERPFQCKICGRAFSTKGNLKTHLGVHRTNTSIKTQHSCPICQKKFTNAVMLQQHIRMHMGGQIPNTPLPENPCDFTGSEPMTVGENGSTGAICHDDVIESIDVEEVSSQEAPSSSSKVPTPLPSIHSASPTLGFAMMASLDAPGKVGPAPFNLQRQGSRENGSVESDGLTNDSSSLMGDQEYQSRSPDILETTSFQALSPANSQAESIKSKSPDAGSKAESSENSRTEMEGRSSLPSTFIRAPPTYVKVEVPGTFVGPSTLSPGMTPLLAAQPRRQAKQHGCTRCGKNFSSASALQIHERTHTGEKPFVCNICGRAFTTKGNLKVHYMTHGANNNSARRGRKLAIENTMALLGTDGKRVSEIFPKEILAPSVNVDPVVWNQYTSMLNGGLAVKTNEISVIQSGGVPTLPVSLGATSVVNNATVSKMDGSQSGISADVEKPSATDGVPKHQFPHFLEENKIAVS
Notes: 8-mer, flanks averaged, mean of replicates
Strand = CACACACC; value = -0.226
Strand = ACTGTGTC; value = -0.00125
Strand = TTGTCAAA; value = 0.317
Strand = CCCCTGCA; value = -0.289
Strand = AAAGGAGA; value = 0.102
Strand = ATCGTACA; value = 0.276
Strand = CCTACCCA; value = -0.0363
Strand = AGAAAAGG; value = 0.115
Strand = CTTATAAG; value = 0.238
Strand = GATCGTCA; value = 0.0818
Strand = GCCATTCC; value = -0.233
Strand = AGCAGTGA; value = -0.0146
Strand = CGCCCAAG; value = -0.28
Strand = AGTGCGCC; value = -0.33
Strand = AGGCATGG; value = -0.171
Strand = AGTCGTGA; value = -0.0703
Strand = CAATTTAA; value = 0.312
Strand = ACCAAAGT; value = 0.012
Strand = AAAGATCT; value = 0.0471

Study 4 — method: RNA Bind-n-Seq; molecule type: RNA; medium: in vitro; tested at: 365 nM; reference: no-protein control; reading: higher = stronger binding; endpoint: RBNS enrichment (R)
Target: RNA binding protein fox-1 homolog 2, RRM domain, GST-SBP tag (RBFOX2, Homo sapiens, UniProt O43251-10, residues 100-194)
Notes: natural RNA segment, single round, ends assumed
Shared flanks, not repeated: GGGAGUUCUACAGUCCGACGAUC … UGGAAUUCUCGGGUGCCAA
Target sequence (chain): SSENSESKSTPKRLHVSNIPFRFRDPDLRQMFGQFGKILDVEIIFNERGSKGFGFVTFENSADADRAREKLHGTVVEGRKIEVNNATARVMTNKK
Strand = ACCGUGGGACACCUCAUUCCCUACCCCAAACGGGCCUUUUAAUUGUCCUGGUCACUUGUACUGGUUACAGAGCCUCUCAGCGAUGGCUACACCACCCUUCUCACCCUGCC; value = 0.799
Strand = GCCCGUCUGCCUCCCCGGCACGGCACGGCUCCGCACGCAACCUAAGCGUGCCACCACGGUCUCUUAUUUAUGGUGUGAUCACCCUGGAGGGCGCCCCCGCCCUGCUGGGG; value = 0.758
Strand = AUUCUGAUUACAUGCAGGUUCCUGGAAGGAGUGUGUCAAUCAUUUAGCUGCAUGUCAUCGGCUCAGCAGUGGGAAGGAAAGGGUACUGCUCUGACCUUGUGUAUUCUGAC; value = 1.3
Strand = CAGGAGUCCACUCAGAAGCAUGAGAACGGCCUGUAAUCCAGGCCGUGUCCUGCCACUAUGCCUGUAUUGCUGAGUGCCACCCAAGUCCUCUAUUUGGCUGUAGUCUGCUC; value = 1.9
Strand = UAACCUUGUAGCAUGUGAAGAAUGUCUGUACCUUGAUACGAUAGUUACAUAAUCAGUAUAUUUGGUUUCUAGAUCACUGUGCUUAUUUUGUUUCAAUCUCUGACUAAAAA; value = 4.76
Strand = CAUGCUCACUCCCCCACUUCUCACCUGCCAACAUCCUGGCCUCUGGCCGUGGCACUGGUGCCAGUACUUUGAAAGAUGGGGUGCAGCCUACACACUUACCUGUCUCAGAC; value = 0.352
Strand = GAUGUAAACCACGUGAGAGGAAAAUGUUAAUAAAAAAUGCAAAGCCCCAUCAUUUGCACAAAACUCACCCUGUGGUGUGGAUGUUUGUGUUCGCGGUGGUCCAGGGAAGC; value = 0.26
Strand = GUUUUGACUACGGUUAAAAUAAGUCAAAUAGUAAGUGGUAAAACACAUUUUUGUUAGUAUUGGAACUUUCUGGAGAACAUAAGGGCUAUGAGAAUGCAUAUAUAUAUUUU; value = 0.789

Repeated from above (study 2):
Strand = AAGUCCUGUGCUACACAUCGUAUGUACCGAAUCGGGGUGGGGAAAGGGGUUUGGGGAAAGUAUUAUGUUACGCCGUUCGGAUCUGCACUU; value = 2.73
Strand = CACAGACAACACGCACCCACACAGACACAGAGGGAAGGGGUUGGGAUGGGGACAGGGUGCACAGCAGGGCGGGCUAGGACCCCAGCCCCU; value = -1.53
Strand = GCAGGAAGUAAAAACAAAUGGAAAUGCUUCGGAUAGUGGCAGGGGUGGGGGUUGCUAAGGAAAGGGUGGGAUGGGAGUGGGUAAAUAGUU; value = 0.417
Strand = GUCCUGUGCUACACAUCGUAUGUACCGAAUCGGGUUUUUGGGGUUUUUGGGUUUUUGGGAAAGUAUUAUGUUACGCCGUUCGGAUCUGCA; value = 0.451
Strand = CACAGAAAACACGCACCCACACAGACACAGAGGGAAGGGGUUGGGAUGGGGACAGGGUGCACAGCAGGGCGGGGUAGGACCCCAGCCCCU; value = -0.6
Strand = UCAAGUCCUGUGCUACACAUCGUAUGUACCGAAUCGGGCCGGCCGGGGCCGGGGAAAGUAUUAUGUUACGCCGUUCGGAUCUGCACUUCC; value = -1.34
